Experimental data collected from several papers.
A part holds a random share of what one study measured. Positions count from the first letter of the parent shown.

Block 1 — method: protein-binding microarray; form: double-stranded DNA, one strand shown; matrix: in vitro; concentration: not given; reading: higher = stronger binding
Target: Protein C-ets-1 (ETS1, Homo sapiens, UniProt P14921, residues 1-441, full length assumed)
Setting: k-mer, scored over probes, only values ≥0.25
Construct (chain): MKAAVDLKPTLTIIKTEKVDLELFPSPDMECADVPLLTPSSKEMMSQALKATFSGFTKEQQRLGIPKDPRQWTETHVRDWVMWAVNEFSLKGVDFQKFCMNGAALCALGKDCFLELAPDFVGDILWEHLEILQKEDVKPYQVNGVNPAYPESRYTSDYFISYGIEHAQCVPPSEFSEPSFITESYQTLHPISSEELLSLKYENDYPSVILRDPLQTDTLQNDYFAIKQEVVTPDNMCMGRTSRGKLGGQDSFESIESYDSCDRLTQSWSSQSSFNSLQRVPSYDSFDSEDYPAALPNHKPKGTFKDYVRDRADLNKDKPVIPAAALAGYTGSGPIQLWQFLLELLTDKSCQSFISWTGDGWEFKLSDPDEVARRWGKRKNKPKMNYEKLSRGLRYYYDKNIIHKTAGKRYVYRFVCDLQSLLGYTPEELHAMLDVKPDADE
The E-score of `GAAGGGAA` is reported as 0.309.
For `GCACAGGA`, the E-score was 0.381.
For `ACACCGGT`, the E-score was 0.285.
The E-score of `CGGGAAGA` is reported as 0.297.
`CCAGCCGG` gave an E-score of 0.277.
`ATGCAGGA` gave an E-score of 0.255.
For `GCATCCAC`, the E-score was 0.274.
The E-score of `CGGACGCC` is reported as 0.378.
The E-score of `ACCGGGAA` is reported as 0.359.
`AGGCGGAA` gave an E-score of 0.451.
With `AAAGGGAT` the E-score was 0.308.
`GGACGGAA` gave an E-score of 0.438.
With `ATCCGGGA` the E-score was 0.434.
`CCGGTTGC` gave an E-score of 0.353.
The E-score of `CGGGGGAA` is reported as 0.351.
With `ACACAGGA` the E-score was 0.281.
`AGCCGGAT` gave an E-score of 0.47.

Block 2 — method: protein-binding microarray; form: double-stranded DNA, one strand shown; matrix: in vitro; concentration: 250 nM; setting: 60-bp whole probe; with: salmon DNA 0.4 mg/ml; baseline: random background probes; reading: higher = stronger binding; shared flanks, not repeated: GCCTAGCAC … GTCTTGATTCGCTTGACGCTGCTG
Target: Interferon regulatory factor 7, full length, phosphomimetic (IRF7, Homo sapiens, UniProt Q92985, residues 1-503, S101K/S471D/S472D/S475D/S476D/S477D/S483D/S484D/S487D)
Target sequence (chain): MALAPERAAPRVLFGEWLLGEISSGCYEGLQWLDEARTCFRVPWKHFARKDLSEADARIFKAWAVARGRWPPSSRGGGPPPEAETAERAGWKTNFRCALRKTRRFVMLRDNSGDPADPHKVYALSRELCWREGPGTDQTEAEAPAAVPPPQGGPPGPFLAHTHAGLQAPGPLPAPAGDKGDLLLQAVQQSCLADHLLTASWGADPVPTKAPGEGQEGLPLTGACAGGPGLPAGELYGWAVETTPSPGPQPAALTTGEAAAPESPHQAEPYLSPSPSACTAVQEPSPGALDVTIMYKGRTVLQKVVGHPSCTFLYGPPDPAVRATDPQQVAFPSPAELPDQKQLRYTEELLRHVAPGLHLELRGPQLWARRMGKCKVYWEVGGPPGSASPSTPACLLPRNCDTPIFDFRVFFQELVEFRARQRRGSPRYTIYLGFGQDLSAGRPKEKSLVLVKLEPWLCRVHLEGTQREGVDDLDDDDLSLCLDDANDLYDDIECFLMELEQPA
For `TTAGGTATCGGGTATCGGGTAGTGCTA`, the log fluorescence was 0.754 z-score.
For `GAGATTTCCATTATTGCTTCGTGCTAG`, the log fluorescence was 1.13 z-score.
`TTAGGTATCCTACTGCTTAAGTGCTAG` has a log fluorescence of 0.372 z-score.
For `GACGATTTCTGGTATCGAGACGTGCTA`, the log fluorescence was 0.424 z-score.
The log fluorescence of `TCAACTTTGAATTAGAAACTGTGCTAG` is reported as 0.746 z-score.
`CTAGGACTGCTTATCCTTTAGTGCTAG` gave a log fluorescence of 0.2 z-score.
`TCACTTTCCTTTATGTAACTGTGCTAG` has a log fluorescence of 2.31 z-score.
With `GACGTTATCGGTTTCGGGACGTGCTAG` the log fluorescence was 3.6 z-score.
With `GAACATACTGATTTCCACTTGTGCTAG` the log fluorescence was 0.693 z-score.
The log fluorescence of `TTGGATCTCAGTATCGATTAGTGCTAG` is reported as 0.552 z-score.
For `TCACACATCTCACTCTAACTGTGCTAG`, the log fluorescence was 0.101 z-score.
The log fluorescence of `GACGGACTGCTAGTGCTGACGTGCTAG` is reported as -0.849 z-score.
The log fluorescence of `TTAGATTTCAGTACCGATTAGTGCTAG` is reported as 0.575 z-score.
The log fluorescence of `TTTCTTTTCTTTTCTTTTTTGTGCTAG` is reported as 4.94 z-score.
For `TCATCTCTGGGTCGGGCACTGTGCTAG`, the log fluorescence was 0.216 z-score.
The log fluorescence of `GACGTTTCCCTTTTCCTGACGTGCTAG` is reported as 3.96 z-score.
With `GACGGTTTCCTGCTGCTGACGTGCTAG` the log fluorescence was 1.06 z-score.
For `TAAGGACTGGGTATCGGTTAGTGCTAG`, the log fluorescence was 0.931 z-score.
`TCATATATATGTGTATAACTGTGCTAG` has a log fluorescence of 0.441 z-score.
For `GACGGTATCCTACTGCTGTCGTGCTAG`, the log fluorescence was -0.199 z-score.
With `TTAGACCTCAGTATCGATTAGTGCTAG` the log fluorescence was 1.07 z-score.
The log fluorescence of `TTAGGACTGCTACTGCATTAGTGCTAG` is reported as -0.458 z-score.
The log fluorescence of `CCTGGCTCCATGGAATTTTTGTGCTAG` is reported as -0.658 z-score.
For `GACGGTTTCGGGTTTCGGTACGTGCTA`, the log fluorescence was 12.2 z-score.
With `TCATTTTTGTAATCGAAAACTGTGCTA` the log fluorescence was 1.49 z-score.

Block 3 — method: RNA Bind-n-Seq; form: RNA; matrix: in vitro; concentration: 200 nM; setting: whole 134-nt RNA, ends assumed; with: 150 mM LiCl; baseline: input library; reading: higher = stronger binding; each molecule: 7-deaza-guanosine replaces G
Target: Fragile X messenger ribonucleoprotein 1, C-terminal low-complexity region (Fmr1, Mus musculus, UniProt P35922)
Shared flanks, not repeated: GGGAGUUCUACAGUCCGACGAUC … UGGAAUUCUCGGGUGUCAAGG
With `GUCCUGUGCUACACAUCGUAUGUACCGAAUCGGGGUUUGGGGUUUUUUUGGGGAGGGGAAAGUAUUAUGUUACGCCGUUCGGAUCUGCAC` the log2 enrichment was 0.455.
With `UAACUUUAGCGGAGGAUCUGAUGGAUAUGGCAGUGGACGUGGAUUUGGGGAUGGCUAUAAUGGGUAUGGAGGAGGACCUGGAGGUGGCAA` the log2 enrichment was 0.176.
For `GCAGGAAGUAAAAACAAAUGGAAAUGCUUCGGAUAGUGGCAAAGGUGGGGGUUGCUAAGGAAAGGGUGGGAUGGGAGUGGGUAAAGAGUU`, the log2 enrichment was 1.21.
`CAAGUCCUGUGCUACACAUCGUAUGUACCGAAUCGGUUUUUGGUUUUUUUGGUGGAAAGUAUUAUGUUACGCCGUUCGGAUCUGCACUUC` has a log2 enrichment of -1.29.
`GUCCUGUGCUACACAUCGUAUGUACCGAAUCAAACCCCCCCAAAUUUAAACCCCCAAAAAAGUAUUAUGUUACGCCGUUCGGAUCUGCAC` has a log2 enrichment of 1.72.
`CCAACUCCUAUAAUUCCCUAUCUUUUAGUUUUAGUUGCAGAAACAUUUUGUGGUCAUUAAGCAUUGGGUGGGUAAAUUCAACCACUGUAA` has a log2 enrichment of 1.16.
`AGUCCUGUGCUACACAUCGUAUGUACCGAAUCGGGCCCCCGGGCCCCCGGCCCCCGGGAAAGUAUUAUGUUACGCCGUUCGGAUCUGCAC` gave a log2 enrichment of -2.25.
With `UCAAGUCCUGUGCUACACAUCGUAUGUACCGAAUCGGAAGGGGAAGGGAAGGGGAAAGUAUUAUGUUACGCCGUUCGGAUCUGCACUUCC` the log2 enrichment was -0.457.
With `GUCCUGUGCUACACAUCGUAUGUACCGAAUCGGGGAAAGGGGUGGGGUUUUUUUGGGGAAAGUAUUAUGUUACGCCGUUCGGAUCUGCAC` the log2 enrichment was -0.212.
`AGGCCCUGGUGGCAUGCGGGGAGGAAGAGGUGGCCUCAUGGAUCGUGGUGGUCCCGGUGGAAUGUUCAGAGGUGGCCGUGGUGGAGACAG` gave a log2 enrichment of -0.751.
`CAAGUCCUGUGCUACACAUCGUAUGUACCGAAUCGGGAAAAAGGGUGGGAAAGGGAAAGUAUUAUGUUACGCCGUUCGGAUCUGCACUUC` has a log2 enrichment of -0.68.

Block 4 — target: CCNB2, cyclin fold, Cln2 fusion (human); method: yeast growth competition, sequencing; matrix: yeast; setting: weak parent motif; baseline: not given; reading: higher = stronger binding
Parent: WEE1 docking peptide (human); HKTFRKLRLFDTP
Under “normalised enrichment score”, `HKTFRKLRLFDDP [T12D]` is recorded as 1.18.
`HKTFRKLRNFDTP [L9N]`: “normalised enrichment score” 0.415.
`HKTFRDLRLFDTP [K6D]` — result for “normalised enrichment score”: 0.282.
Under “normalised enrichment score”, `HATFRKLRLFDTP [K2A]` is recorded as 0.379.
Under “normalised enrichment score”, `HKRFRKLRLFDTP [T3R]` is recorded as 0.7.
Under “normalised enrichment score”, `IKTFRKLRLFDTP [H1I]` is recorded as 1.1.
`HDTFRKLRLFDTP [K2D]`: “normalised enrichment score” 0.177.
Under “normalised enrichment score”, `HKTFRKLRLFDTL [P13L]` is recorded as 0.573.
Under “normalised enrichment score”, `HKTFRKCRLFDTP [L7C]` is recorded as 1.31.
`HKTFRPLRLFDTP [K6P]`: “normalised enrichment score” 0.699.
Under “normalised enrichment score”, `HNTFRKLRLFDTP [K2N]` is recorded as 0.28.
For `HKTFRKLLLFDTP [R8L]`, “normalised enrichment score” read 0.692.
Under “normalised enrichment score”, `HKTFRKLRLFDIP [T12I]` is recorded as 1.02.
`HKTFRKLRLFLTP [D11L]` — result for “normalised enrichment score”: 0.887.

Block 5 — method: protein binding microarray; form: double-stranded DNA, one strand shown; matrix: in vitro; concentration: not given; baseline: not given; reading: higher = stronger binding
Target: Histone acetyltransferase KAT6A, both winged helices, GST fusion (KAT6A, Homo sapiens, UniProt Q92794, residues 1-181)
Setting: 8-mer, flanks averaged, mean of 2 arrays, mostly near background
Target sequence (chain): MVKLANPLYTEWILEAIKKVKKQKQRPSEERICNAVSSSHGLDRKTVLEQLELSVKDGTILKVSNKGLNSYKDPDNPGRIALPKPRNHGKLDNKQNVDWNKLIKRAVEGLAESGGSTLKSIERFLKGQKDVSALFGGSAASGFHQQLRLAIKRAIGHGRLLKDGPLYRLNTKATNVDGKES
For `CTCTGAGA`, the E-score was -0.128.
For `AGTTGTCG`, the E-score was -0.0224.
For `AACCGTAA`, the E-score was 0.283.
`GACGTAGC` has an E-score of 0.106.
With `GAATGTGC` the E-score was 0.166.
`ATCAAAAC` gave an E-score of 0.0271.
The E-score of `ACGCCAAT` is reported as -0.0771.
`TGAGGCAA` has an E-score of -0.137.
`CGACCACG` has an E-score of 0.107.
With `AAAGACAA` the E-score was -0.0501.
With `ATCTATCA` the E-score was -0.076.
For `CACACCGG`, the E-score was 0.113.
The E-score of `AGAGAAGC` is reported as -0.0518.
`AATACGTC` gave an E-score of 0.0565.
`GAGGCACC` gave an E-score of -0.0162.
`CTCTGAAC` gave an E-score of -0.102.
With `TCAAGACA` the E-score was -0.0777.
For `CTCGTGGA`, the E-score was -0.134.
With `AGATGGAA` the E-score was -0.107.
The E-score of `GAGAATGC` is reported as 0.0606.
With `CGATAATA` the E-score was -0.0379.
The E-score of `GCATGCCC` is reported as 0.104.
`ATAGCTTG` has an E-score of -0.0979.
`GGAACCGA` has an E-score of 0.102.

Block 6 — method: DHFR PCA, dose-response; matrix: yeast; setting: Hill fit, not affinity; with: (+)-ABA, dose series; reading: lower = more sensitive
Target: ABI1, truncated, D143A, DHFR fusion (Arabidopsis thaliana, UniProt P49597)
Parent: PYL1, truncated, DHFR fusion (Arabidopsis thaliana, UniProt Q8VZS8); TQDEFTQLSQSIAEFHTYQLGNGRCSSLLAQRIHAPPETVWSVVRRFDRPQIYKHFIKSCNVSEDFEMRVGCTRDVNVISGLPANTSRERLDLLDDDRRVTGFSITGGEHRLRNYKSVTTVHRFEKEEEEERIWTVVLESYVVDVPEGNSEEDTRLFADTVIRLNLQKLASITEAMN
For `T101F`, the ABA EC50 was 4680 nM.
For `N77C`, the ABA EC50 was 5180 nM.
With `N77E` the ABA EC50 was 3850 nM.
`R99W` gave an ABA EC50 of 2460 nM.
The ABA EC50 of `N177S` is reported as 1330 nM.
For `V78R`, the ABA EC50 was 685 nM.
With `N177K` the ABA EC50 was 2850 nM.
For `I133V`, the ABA EC50 was 2330 nM.
